Literature values as cited in several papers.
Numbers after ± are the reported error. The star is where a group is joined.
Sequence of UniProt Q9R0C9 (whole entry, looked up): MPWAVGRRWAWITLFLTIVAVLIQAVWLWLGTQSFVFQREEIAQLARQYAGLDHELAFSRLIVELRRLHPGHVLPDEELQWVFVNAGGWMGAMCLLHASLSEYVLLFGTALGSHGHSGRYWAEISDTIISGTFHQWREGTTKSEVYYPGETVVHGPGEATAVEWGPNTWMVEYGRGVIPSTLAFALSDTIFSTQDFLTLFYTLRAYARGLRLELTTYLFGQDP
Sequence of UniProt Q5U3Y7 (whole entry, looked up): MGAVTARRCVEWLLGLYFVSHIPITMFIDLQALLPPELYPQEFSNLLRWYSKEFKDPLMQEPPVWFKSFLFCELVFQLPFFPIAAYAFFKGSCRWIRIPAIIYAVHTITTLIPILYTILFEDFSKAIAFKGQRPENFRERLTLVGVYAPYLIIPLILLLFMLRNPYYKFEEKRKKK
Sequence of UniProt P39045 (whole entry, looked up): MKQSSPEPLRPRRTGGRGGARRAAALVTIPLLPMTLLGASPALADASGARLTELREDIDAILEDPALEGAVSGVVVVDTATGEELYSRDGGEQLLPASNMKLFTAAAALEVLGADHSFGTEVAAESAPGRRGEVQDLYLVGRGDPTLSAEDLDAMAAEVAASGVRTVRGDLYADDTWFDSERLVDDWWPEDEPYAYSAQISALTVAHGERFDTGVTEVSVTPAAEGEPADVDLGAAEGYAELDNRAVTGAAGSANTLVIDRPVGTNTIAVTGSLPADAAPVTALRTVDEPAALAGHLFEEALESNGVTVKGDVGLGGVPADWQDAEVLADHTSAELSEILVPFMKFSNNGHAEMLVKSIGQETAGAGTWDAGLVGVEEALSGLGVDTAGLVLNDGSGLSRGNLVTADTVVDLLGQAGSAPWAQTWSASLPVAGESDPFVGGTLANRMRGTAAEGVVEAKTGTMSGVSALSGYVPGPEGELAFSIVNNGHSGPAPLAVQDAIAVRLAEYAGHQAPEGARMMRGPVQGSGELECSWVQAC
Sequence of UniProt Q64264 (whole entry, looked up): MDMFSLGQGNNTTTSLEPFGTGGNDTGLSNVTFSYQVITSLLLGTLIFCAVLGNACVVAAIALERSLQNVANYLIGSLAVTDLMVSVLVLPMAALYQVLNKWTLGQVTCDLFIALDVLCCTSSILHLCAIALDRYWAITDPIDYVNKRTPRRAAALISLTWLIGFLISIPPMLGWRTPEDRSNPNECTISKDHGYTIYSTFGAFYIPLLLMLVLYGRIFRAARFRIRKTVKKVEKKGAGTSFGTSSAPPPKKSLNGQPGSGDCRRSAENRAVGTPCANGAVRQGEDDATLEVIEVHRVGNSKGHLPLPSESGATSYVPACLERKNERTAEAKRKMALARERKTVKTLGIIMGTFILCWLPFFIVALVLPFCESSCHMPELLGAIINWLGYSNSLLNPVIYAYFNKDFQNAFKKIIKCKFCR
Sequence of UniProt P0DMS8 (whole entry, looked up): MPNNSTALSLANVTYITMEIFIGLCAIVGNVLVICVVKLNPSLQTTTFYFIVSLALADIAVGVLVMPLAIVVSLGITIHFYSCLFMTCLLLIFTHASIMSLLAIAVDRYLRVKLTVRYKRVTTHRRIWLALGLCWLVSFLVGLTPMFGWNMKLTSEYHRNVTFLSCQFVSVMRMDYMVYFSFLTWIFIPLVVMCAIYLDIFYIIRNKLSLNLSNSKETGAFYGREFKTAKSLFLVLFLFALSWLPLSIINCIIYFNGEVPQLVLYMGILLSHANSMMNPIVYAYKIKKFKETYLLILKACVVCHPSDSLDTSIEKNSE
Sequence of UniProt P31652 (whole entry, looked up): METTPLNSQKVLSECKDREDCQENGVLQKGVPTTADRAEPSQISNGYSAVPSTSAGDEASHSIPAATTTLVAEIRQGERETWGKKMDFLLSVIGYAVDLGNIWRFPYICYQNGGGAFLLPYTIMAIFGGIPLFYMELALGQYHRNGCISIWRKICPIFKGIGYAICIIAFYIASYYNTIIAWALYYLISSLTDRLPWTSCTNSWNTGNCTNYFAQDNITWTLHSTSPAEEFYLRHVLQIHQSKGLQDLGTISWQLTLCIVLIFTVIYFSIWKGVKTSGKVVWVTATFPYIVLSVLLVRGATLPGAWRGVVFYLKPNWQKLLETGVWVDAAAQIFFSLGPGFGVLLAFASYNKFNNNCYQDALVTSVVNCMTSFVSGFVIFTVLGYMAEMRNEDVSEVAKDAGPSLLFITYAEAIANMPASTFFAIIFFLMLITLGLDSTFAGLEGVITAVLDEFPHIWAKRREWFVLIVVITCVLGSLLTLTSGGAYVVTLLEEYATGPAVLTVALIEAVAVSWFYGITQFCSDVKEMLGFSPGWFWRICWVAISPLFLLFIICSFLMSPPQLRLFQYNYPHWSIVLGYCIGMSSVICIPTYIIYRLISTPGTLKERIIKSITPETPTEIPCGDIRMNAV

Substance = O=[N+]([O-])[O-].[Ag+]; target = carbonic anhydrase, gill; assay = enzyme activity; test system = rainbow trout, freshwater; conditions = 10 µg/L, 48 h; measurement = inhibition; value = 28%
Substance = COC1C2OP(O)(=S)OCC2OC1n1c(Sc2ccc(Cl)cc2)nc2c(N)ncnc21 (centres unmarked); target = PDE1C; assay = cyclic nucleotide hydrolysis, substrate or inhibitor, isothermal titration calorimetry; measurement = Km or Ki; value = 17200 nM
Substance = N=C(N)NCCC[C@H](N)C(=O)O; target = arginase Leishmania amazonensis; assay = substrate; measurement = Km; value = 21500 ± 900 µM
Substance = C#Cc1cccc2c1[nH]c1cnc(C(=O)OC(C)(C)C)cc12; target = GABAA receptor benzodiazepine site; assay = binding; scale = reference: α1-containing over other subtypes; measurement = selectivity ratio; value = 105 fold
Substance = C=CCN(CC=C)CCc1c[nH]c2ccc(OC)cc12; target = Sigmar1 (Rattus norvegicus, UniProt Q9R0C9); measurement = Ki; value = 301 nM
Substance = tetrahydrofolate; target = serine hydroxymethyltransferase, Plasmodium chabaudi; assay = substrate; measurement = Km; value = 2900 µM
Substance = N[C@@]1(c2ccccc2Cl)CCC[C@@H](O)C1=O; target = opioid receptors; assay = binding, competitive binding screen; conditions = concentration not given; measurement = activity; value = inactive
Substance = C[C@]12CCC(=O)CC1=CC[C@@H]1[C@@H]2CC[C@]2(C)C(=O)CC[C@@H]12; target = ketosteroid isomerase Y30F; assay = substrate; conditions = pH 7.0, 3.3 % methanol; measurement = Km; value = 55.2 ± 2 µM
Substance = CC(C)(C)OC(=O)c1cc2c(cn1)[nH]c1ccccc12; target = GABAA receptor α2β3γ2; assay = modulator, two-electrode voltage clamp; test system = Xenopus oocytes; conditions = 1 to 10 µM, together with: GABA at EC50; scale = reference: GABA response; measurement = efficacy; value = 99 ± 10%
Substance = C[C@@H](SC(=O)CNC(=O)Cc1ccccc1)C(=O)O; target = D-alanyl-D-alanine carboxypeptidase (Actinomadura sp. R39, UniProt P39045); assay = substrate; conditions = pH 7.50, 25 °C; measurement = Km; value = 38.4 µM
Substance = CN1C/C(=C\c2ccc(Cl)cc2Cl)C/C(=C/c2ccc(Cl)cc2Cl)C1; target = alpha4beta2 nicotinic acetylcholine receptor; assay = binding; conditions = together with: [3H]nicotine; measurement = Ki; value = > 100000 nM
Substance = N[C@@H](CO)C(=O)O; target = serine hydroxymethyltransferase (Leishmania donovani); assay = substrate; measurement = Km; value = 1600 µM
Substance = Cc1sc2nc(-c3ccc([N+](=O)[O-])cc3)[nH]c(=O)c2c1C; target = Gag-Pol polyprotein, reverse transcriptase RNase H (gag-pol, Human immunodeficiency virus 1, UniProt P03366, C879A); conditions = p66/p51 heterodimer; scale = reference: wild-type RT; measurement = fold resistance; value = ~50 fold
Substance = CCCC(C(=O)c1ccc2c(c1)OCO2)N1CCCC1 (centres unmarked); target = Slc6a4 (Rattus norvegicus, UniProt P31652); assay = transporter-mediated release, substrate; test system = rat brain synaptosomes; measurement = EC50; value = inactive
Substance = CN(C)C/C=C/C(=O)Nc1cccc(C(=O)Nc2ccc(Nc3nccc(-c4cccnc4)n3)cc2)c1; target = IRAK1 kinase (via Pellino E3 ligase activity); assay = Pellino E3 ligase activity, inhibitor; test system = cells; conditions = together with: interleukin-1 stimulation; measurement = concentration for complete inhibition; value = 10 µM
Substance = CNC(=O)[C@@]12C[C@@H]1[C@@H](n1cnc3c(NCc4cccc(Cl)c4)nc(C#Cc4ccc5ccc6cccc7ccc4c5c67)nc31)[C@H](O)[C@@H]2O; target = ADORA3 (Homo sapiens, UniProt P0DMS8); assay = receptor activation, agonist; conditions = 10 µM; scale = reference: NECA 10 µM maximal effect; measurement = efficacy; value = 77.8%
Substance = O=[P@]1(S)OC[C@H]2O[C@@H](n3cnc4cc(Cl)c(Cl)cc43)[C@H](O)[C@@H]2O1; target = PDE1A; assay = cyclic nucleotide hydrolysis, substrate or inhibitor, isothermal titration calorimetry; measurement = Km or Ki; value = 89600 nM
Substance = Oc1c(Cl)c(Cl)c(Cl)c(Cl)c1Cl; target = pentachlorophenol 4-monooxygenase Sphingobium chlorophenolicum; assay = substrate, refers to: tetrachlorohydroquinone; conditions = 2 min; measurement = kcat; value = 17 ± 5 s⁻¹
Substance = O=c1c2nc(Br)n([C@@H]3O[C@@H]4CO[P@@](O)(=S)O[C@H]4[C@H]3O)c2nc2[nH]c(-c3ccccc3)cn12; target = PDE1B; assay = cyclic nucleotide hydrolysis, substrate or inhibitor, isothermal titration calorimetry; measurement = Km or Ki; value = 2500 nM
Substance = C=CCN(CC=C)CCc1c[nH]c2ccccc12; target = Tmem97 (Rattus norvegicus, UniProt Q5U3Y7); assay = binding, radioligand binding; test system = rat PC-12; conditions = together with: [3H]DTG; measurement = Ki; value = 356 nM
Substance = COC1=CC(=O)O[C@@H](CCc2ccccc2)C1; target = NF-κB; assay = reporter gene and DNA binding, inhibitor; conditions = together with: TNFα; measurement = effective concentration; value = 870 µM
Substance = COc1ccccc1N1CCN(CCN(C(=O)C2CCC(CF)CC2)c2ccccn2)CC1 (centres unmarked); target = Htr1a (Mus musculus, UniProt Q64264); test system = mouse; conditions = 90 min; measurement = hippocampus to cerebellum PET ratio; value = 3
Substance = Boc-Gly-Lys-Arg-{AMC} (Boc-Gly-Lys-Arg-AMC; Boc = CC(C)(C)OC(=O)*; AMC = Cc1cc(=O)oc2cc(N*)ccc12); target = West Nile virus NS2B-NS3 protease; assay = substrate; conditions = tripeptide substrate; measurement = Km; value = 737 ± 150 µM

A few entries again:
Substance = O=[N+]([O-])[O-].[Ag+]; target = carbonic anhydrase, gill; assay = enzyme activity; test system = rainbow trout, freshwater; conditions = 10 µg/L, 48 h; measurement = inhibition; value = 28%
